# Published values from different studies.
# Lines come from different studies, so protocols differ. “And” joins repeats or separate records; there may be more than shown. ± marks the error that the study gave.
SMILES,target or system,test,system,conditions,scale,quantity,result
O=C(C[Se]C(=O)c1ccco1)Nc1cccc(C(F)(F)F)c1,NCI60 renal subpanel,"total growth inhibition, inhibitor",,five-dose,,mean TGI,8.59 µM
CCN(CC)C(=O)[C@@H]1C=C2c3cccc4c3c(cn4C(=O)c3cccs3)C[C@H]2N(C)C1,,magnetometer,"C57BL/6J mouse, male","intraperitoneal, 0.75 mg/kg, 30 min session",,head-twitch response count,27.2
Cc1cc(C(=O)Nc2nc3cccc(C)c3n2[C@H]2CCCCN(C(=O)/C=C/CN(C)C)C2)ccn1,Trypanosoma brucei,,"STIB795, mouse acute HAT model","oral, 7.5 mg/kg once daily for 4 days, day 0",relative to: mice,survival,100%
CC(C)(C)C(=O)OCOP(=O)(OCOC(=O)C(C)(C)C)C1CCCN(O)C1=O (stereo not shown),UACC-62,,,,,GI50,0.318 µM
CCN(CC)C(=O)[C@@H]1C=C2c3cccc4c3c(cn4C(=O)c3ccco3)C[C@H]2N(C)C1,,"head-twitch response, magnetometer detection",mouse C57BL/6J male,intraperitoneal,,ED50,0.466 µmol/kg
CC[C@H](C)[C@H](NC(=O)[C@H](CCCNC(=N)N)NC(=O)[C@H](CO)NC(=O)[C@H](Cc1ccc(O)cc1)NC(=O)[C@@H](NC(=O)[C@@H](NC(=O)[C@H](C)NC(=O)CNC(=O)[C@H](CCCCN)NC(=O)[C@H](CCCCN)NC(=O)CCNC(=O)CCCCCNC(=O)[C@H](CCCNC(=N)N)NC(=O)CCCCCNC(=O)[C@H](CCCNC(=N)N)NC(=O)[C@H](CCCNC(=N)N)NC(=O)CCCCCNC(=O)[C@H](CCCNC(=N)N)NC(=O)[C@H](CCCNC(=N)N)NC(=O)CCCCCNC(=O)[C@H](CCCNC(=N)N)NC(=O)[C@H](CCCNC(=N)N)NC(=O)CCCCCNC(=O)[C@@H](N)CCCNC(=N)N)C(C)C)[C@@H](C)O)C(=O)N[C@@H](CO)C(=O)NCC(=O)N[C@@H](CCC(N)=O)C(=O)N[C@@H](Cc1ccc(O)cc1)C(=O)N[C@@H](CCCCN)C(=O)O,,broth microdilution,"ATCC 43300 resistant strain, Mueller-Hinton broth",,,MIC,12 µM
CNCCc1c[nH]c2ccc(O)cc12,NMT from Rhinella marina,,,"10 min, 30 °C",,kcat,0.0014 s⁻¹
Cc1cc(Oc2nc(N3CC[C@@H](c4ccncc4)C3)ncc2F)[nH]n1,Mycobacterium tuberculosis,,"THP-1, H37Rv non-replicating","9.488 µM, day 4",,normalised growth,13.2% and 22.6%
O=C1NC2(CC2)COc2ncc(F)cc2[C@H]2COCCN2c2ccn3ncc1c3n2,,,"Sprague-Dawley rat, male, blood","oral, 5 mg/kg/day, 4 weeks, end of recovery, subacute toxicity",,neutrophil percentage,11.6 ± 1.1%
COc1ccccc1-c1n[nH]c2nc(N[C@H]3CC[C@H](NS(=O)(=O)CC(C)C)CC3)ncc12,,"bead binding, competition bead pull-down, refers to: LINJ.22.0530",Leishmania donovani extract,10 µM,relative to: vehicle,relative abundance,0.55
CCCCCC1=C(NCC)C(=O)C(C/C=C(\C)CCC=C(C)C)=C(O)C1=O,,"RNA-seq GSEA, refers to: HALLMARK_MYC_TARGETS_V1","mouse, A53T α-synuclein lesioned, striatum",dose not given,"relative to: untreated A53T lesioned mice, direction not given",normalised enrichment score,-1.45
[2H]C([2H])([2H])C1(C([2H])([2H])[2H])NC(=O)N(c2ccc(F)c(C(F)(F)F)c2)C1=O,Schistosoma mansoni,,"juvenile stage, infected mice","oral, 50 mg/kg",relative to: untreated infected,worm burden reduction,9.4%
Cc1ccc(NS(=O)(=O)c2c(C(=O)N3CCCCCC3)c(C)n(C)c2C)c(Cl)c1,Human alphaherpesvirus 1,viral infection,HaCaT,"0.4115 µM, 36 h",relative to: untreated,infection,98% and 97.5% and 107%
CC1(C)CC(=O)C2=C(C1)Oc1ccccc1C2C1C(=O)NC(=O)NC1=O (stereo not shown),3T3-L1 mature adipocytes,"lipolysis, Oil Red O staining",,IC20,,mean lipid content,0.602 OD492
CCCCCCCCCCCCNC=C1N=C(c2ccc[nH]2)C=C1OC.Cl,Candidozyma auris,broth microdilution,CDC AR Bank #0381,24 h,,MIC,2 µg/mL
COc1ccccc1-c1n[nH]c2nc(NC3CCN(C(=O)Cc4ccc(F)cc4F)CC3)ncc12,,"bead binding, competition bead pull-down, refers to: LINJ.23.0050",Leishmania donovani extract,10 µM,relative to: vehicle,relative abundance,1
CN1C(=O)C(C2C3=C(CCCC3=O)Oc3ccc(Br)cc32)C(=O)N(C)C1=O (stereo not shown),3T3-L1,"cell growth or viability, MTT",,72 h,,IC20,26.8 µg/mL
O=C(C[Se]C(=O)c1ccccc1)Nc1cccc(C(F)(F)F)c1,"NCI60 prostate subpanel (PC-3, DU-145)","cytotoxicity, inhibitor",,five-dose,,CC50,12.4 µM
CC(C)CC(C(=O)N1CC2(CC1C#N)C(=O)Nc1ccccc12)N(C)C(=O)c1cc2c(F)cc(F)c(F)c2[nH]1 (stereo not shown),human coronavirus 229E,viral replication,MRC-5,0.3085 µM,,inhibition,107%
